Assay results pooled from the literature.
Every numbered part comes from another study and shows a few of its results, in no order. “And” joins repeats or separate records; there may be more than shown.
Chain of UniProt Q9HAZ1 (whole entry, looked up): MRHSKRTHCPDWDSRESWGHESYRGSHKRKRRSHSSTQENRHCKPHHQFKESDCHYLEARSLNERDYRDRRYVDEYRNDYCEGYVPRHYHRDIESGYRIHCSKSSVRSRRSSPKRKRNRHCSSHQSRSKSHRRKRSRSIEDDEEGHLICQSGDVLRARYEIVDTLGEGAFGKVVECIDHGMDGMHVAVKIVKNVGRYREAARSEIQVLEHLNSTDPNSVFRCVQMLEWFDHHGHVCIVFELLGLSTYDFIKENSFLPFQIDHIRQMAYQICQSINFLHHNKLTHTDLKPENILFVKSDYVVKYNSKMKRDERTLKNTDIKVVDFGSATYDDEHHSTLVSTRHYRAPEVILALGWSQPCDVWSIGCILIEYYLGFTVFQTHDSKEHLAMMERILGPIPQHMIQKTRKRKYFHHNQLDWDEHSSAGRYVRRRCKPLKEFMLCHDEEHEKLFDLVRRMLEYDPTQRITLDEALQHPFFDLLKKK
Chain of UniProt P29317 (whole entry, looked up): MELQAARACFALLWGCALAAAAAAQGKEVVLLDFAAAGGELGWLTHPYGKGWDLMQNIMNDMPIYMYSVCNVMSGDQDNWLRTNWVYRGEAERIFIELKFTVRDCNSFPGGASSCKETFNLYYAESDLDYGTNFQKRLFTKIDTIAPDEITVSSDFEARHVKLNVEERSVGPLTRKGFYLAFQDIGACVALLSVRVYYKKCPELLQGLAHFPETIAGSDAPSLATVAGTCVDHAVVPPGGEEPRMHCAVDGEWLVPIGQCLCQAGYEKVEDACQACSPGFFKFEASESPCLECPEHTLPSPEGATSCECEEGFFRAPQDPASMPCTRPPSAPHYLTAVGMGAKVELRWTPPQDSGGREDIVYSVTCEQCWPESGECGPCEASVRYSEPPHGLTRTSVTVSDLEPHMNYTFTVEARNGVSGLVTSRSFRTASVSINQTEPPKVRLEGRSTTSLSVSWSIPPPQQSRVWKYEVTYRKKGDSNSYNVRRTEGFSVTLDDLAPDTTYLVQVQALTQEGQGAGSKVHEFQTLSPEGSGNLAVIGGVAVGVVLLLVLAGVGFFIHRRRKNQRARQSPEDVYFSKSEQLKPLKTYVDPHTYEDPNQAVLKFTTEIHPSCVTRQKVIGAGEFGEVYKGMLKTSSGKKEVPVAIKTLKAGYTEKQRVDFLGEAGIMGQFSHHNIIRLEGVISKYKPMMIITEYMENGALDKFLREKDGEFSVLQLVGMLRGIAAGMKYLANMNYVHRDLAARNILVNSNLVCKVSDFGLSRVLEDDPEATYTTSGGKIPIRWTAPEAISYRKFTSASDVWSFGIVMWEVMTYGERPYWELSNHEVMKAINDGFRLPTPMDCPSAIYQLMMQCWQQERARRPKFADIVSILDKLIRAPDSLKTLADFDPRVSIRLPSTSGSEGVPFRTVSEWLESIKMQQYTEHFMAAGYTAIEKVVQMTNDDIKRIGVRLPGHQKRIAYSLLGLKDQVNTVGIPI
Chain of UniProt P49761 (whole entry, looked up): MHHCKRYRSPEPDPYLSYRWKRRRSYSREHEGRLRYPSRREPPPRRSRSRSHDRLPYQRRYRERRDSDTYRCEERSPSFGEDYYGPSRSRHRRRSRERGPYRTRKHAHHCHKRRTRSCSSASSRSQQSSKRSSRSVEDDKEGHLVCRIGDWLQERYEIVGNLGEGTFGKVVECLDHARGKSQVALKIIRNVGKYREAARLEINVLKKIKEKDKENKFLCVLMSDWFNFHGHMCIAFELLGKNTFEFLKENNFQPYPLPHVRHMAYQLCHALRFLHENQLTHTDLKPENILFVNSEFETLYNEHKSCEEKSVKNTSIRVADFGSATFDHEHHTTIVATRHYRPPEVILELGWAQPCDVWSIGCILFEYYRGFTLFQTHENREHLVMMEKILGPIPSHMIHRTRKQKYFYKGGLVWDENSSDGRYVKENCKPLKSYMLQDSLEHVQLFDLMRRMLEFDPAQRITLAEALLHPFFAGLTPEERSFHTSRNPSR
Chain of UniProt P28482 (whole entry, looked up): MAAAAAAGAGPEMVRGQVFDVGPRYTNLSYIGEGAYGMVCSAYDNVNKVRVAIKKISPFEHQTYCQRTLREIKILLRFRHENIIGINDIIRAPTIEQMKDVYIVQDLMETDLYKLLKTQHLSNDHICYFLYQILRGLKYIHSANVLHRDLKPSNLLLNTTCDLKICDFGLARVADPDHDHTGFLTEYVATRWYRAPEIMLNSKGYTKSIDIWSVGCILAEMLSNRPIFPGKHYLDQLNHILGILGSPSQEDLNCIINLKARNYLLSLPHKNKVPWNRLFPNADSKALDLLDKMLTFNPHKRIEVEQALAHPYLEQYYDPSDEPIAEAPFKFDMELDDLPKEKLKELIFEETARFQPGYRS
Chain of UniProt O75914 (whole entry, looked up): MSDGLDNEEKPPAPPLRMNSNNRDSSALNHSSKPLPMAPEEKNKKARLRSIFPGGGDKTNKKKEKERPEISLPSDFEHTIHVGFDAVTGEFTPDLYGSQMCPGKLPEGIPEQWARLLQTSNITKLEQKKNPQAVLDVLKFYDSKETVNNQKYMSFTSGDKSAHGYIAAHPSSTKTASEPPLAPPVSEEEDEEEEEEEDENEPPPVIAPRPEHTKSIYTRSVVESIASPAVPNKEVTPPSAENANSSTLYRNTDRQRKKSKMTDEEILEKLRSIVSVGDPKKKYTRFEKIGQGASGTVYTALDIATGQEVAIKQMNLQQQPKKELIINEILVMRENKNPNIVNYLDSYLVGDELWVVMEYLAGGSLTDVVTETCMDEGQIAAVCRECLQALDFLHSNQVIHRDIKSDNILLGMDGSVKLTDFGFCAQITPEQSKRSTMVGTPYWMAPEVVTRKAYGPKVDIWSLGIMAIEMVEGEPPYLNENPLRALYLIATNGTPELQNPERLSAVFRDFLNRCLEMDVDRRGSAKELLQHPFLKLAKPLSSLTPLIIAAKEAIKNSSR
Chain of UniProt P42681 (whole entry, looked up): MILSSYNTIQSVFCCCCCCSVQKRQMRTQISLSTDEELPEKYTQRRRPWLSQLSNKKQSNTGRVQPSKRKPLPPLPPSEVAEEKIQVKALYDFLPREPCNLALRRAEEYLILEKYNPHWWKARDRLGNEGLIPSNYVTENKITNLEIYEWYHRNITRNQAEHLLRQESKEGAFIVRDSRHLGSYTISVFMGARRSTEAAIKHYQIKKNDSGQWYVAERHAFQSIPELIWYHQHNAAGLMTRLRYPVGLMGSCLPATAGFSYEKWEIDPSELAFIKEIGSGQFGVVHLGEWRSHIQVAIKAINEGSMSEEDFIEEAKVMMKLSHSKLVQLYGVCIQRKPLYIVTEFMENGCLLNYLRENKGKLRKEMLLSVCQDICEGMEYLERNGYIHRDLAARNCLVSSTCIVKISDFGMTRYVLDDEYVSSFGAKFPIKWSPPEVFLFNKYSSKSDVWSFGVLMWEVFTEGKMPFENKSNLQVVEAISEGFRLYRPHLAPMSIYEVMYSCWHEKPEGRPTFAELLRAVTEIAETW
Chain of UniProt Q13464 (whole entry, looked up): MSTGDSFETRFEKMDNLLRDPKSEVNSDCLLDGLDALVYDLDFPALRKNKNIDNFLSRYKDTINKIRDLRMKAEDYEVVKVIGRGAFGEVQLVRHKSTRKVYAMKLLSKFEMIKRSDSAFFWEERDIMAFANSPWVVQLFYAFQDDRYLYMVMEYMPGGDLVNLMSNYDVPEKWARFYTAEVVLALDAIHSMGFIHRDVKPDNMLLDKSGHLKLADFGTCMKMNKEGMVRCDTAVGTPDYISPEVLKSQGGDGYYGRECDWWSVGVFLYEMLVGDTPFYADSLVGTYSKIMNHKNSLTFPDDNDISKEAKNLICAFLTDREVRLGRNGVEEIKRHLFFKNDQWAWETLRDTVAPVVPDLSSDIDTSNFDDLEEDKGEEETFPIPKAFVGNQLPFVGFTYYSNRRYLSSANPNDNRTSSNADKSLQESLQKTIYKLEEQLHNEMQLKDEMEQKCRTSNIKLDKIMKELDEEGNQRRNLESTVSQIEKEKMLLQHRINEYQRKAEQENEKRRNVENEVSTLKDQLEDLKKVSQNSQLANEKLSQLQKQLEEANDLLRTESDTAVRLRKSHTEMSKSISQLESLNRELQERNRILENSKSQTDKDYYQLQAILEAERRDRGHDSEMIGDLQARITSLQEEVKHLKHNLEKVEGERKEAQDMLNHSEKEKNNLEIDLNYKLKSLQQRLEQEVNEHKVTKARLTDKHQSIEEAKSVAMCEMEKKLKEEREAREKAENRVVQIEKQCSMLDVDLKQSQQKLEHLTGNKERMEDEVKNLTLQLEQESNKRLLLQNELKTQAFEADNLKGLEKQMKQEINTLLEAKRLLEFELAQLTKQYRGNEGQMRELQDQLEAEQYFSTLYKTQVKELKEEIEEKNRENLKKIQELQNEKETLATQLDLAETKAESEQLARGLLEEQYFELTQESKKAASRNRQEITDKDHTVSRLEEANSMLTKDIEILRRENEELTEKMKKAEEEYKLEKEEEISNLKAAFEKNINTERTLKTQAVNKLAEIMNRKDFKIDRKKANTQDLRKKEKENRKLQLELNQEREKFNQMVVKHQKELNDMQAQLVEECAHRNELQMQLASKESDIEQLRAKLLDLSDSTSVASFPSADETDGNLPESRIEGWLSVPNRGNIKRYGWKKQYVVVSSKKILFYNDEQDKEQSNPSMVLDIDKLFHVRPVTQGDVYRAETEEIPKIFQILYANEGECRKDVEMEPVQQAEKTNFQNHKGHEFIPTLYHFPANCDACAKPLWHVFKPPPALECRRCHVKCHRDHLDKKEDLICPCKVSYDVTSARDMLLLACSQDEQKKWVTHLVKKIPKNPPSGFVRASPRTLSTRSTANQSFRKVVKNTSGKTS
Chain of UniProt P06493 (whole entry, looked up): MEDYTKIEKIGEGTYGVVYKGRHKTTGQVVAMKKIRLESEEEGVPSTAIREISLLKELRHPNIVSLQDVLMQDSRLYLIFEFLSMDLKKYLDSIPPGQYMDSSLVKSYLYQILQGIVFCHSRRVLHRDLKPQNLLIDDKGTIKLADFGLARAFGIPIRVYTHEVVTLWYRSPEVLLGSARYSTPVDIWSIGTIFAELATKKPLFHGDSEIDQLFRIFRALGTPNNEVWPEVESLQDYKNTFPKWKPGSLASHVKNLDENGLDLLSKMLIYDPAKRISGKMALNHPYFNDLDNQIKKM

Set 1 — effect on: enzyme activity; action: inhibitor; tested at: 0.5 µM; relative to: control
Structure (SMILES): NC(=O)c1ccc(-c2nc(-c3ccc4c(c3)OCCO4)c(-c3ccccn3)[nH]2)cc1
| target | remaining activity |
| --- | --- |
| RPS6KA4 (Homo sapiens, UniProt O75676) | 97.7% |
| MAPK14 (Homo sapiens, UniProt Q16539) | 91.9% |
| ROCK1 (Homo sapiens, UniProt Q13464) | 98.1% |
| DDR2 (Homo sapiens, UniProt Q16832) | 95% |
| MAPK11 (Homo sapiens, UniProt Q15759) | 95.4% |
| Cyclin-dependent kinase 1, with cyclin A (CDK1, Homo sapiens, UniProt P06493) | 97.1% |
| CLK3 (Homo sapiens, UniProt P49761) | 112% |
| PAK3 (Homo sapiens, UniProt O75914) | 96.7% |
| CAMK4 (Homo sapiens, UniProt Q16566) | 101% |
| CLK4 (Homo sapiens, UniProt Q9HAZ1) | 109% |
| MAPK1 (Homo sapiens, UniProt P28482) | 101% |
| AKT2 (Homo sapiens, UniProt P31751) | 95.9% |
| TXK (Homo sapiens, UniProt P42681) | 99.2% |

Set 2 — cell line: A-375; tested at: 100 µM; time: 18 h
| Structure (SMILES) | viability [%] |
| --- | --- |
| COc1ccc2cc3[n+](cc2c1OC)CCc1cc2c(cc1-3)OCO2 | 68.5 |
| NC(=O)c1ccccc1O | 77.6 |
| Cc1cccc(Nc2ccncc2S(=O)(=O)NC(=O)NC(C)C)c1 | 102 |
| CCCCC1C(=O)N(c2ccccc2)N(c2ccccc2)C1=O | 86.5 |
| CC(=O)OCC(CCn1cnc2cnc(N)nc21)COC(C)=O | 100 |
| c1cnc2cc3c(cc2n1)[C@@H]1CNC[C@H]3C1 | 96.2 |
| CCCCOc1ccc(OCCCN2CCOCC2)cc1 | 48.3 |
| Cc1ccc(S(=O)(=O)NC(=O)NN2CC3CCC[C@@H]3C2)cc1 (stereo in doubt) | 109 |

Set 3 — cell line: mouse MPNST tumor cells; method: high-content immunofluorescence imaging; measured: nuclear SOX9; tested at: 10 µM; time: 12 h; setting: mean of 2 replicates; relative to: DMSO control; direction: higher = more nuclear SOX9
| SMILES | nuclear SOX9 intensity |
| --- | --- |
| CCCc1cc(C)n(C)c(=O)c1CN(C)C(=O)c1cc(-c2ccc(N3CCN(C(C)C)CC3)nc2)cc2c1cnn2C(C)C | 135 % of DMSO |
| CCN1C(=O)NC(c2ccccc2)C1=O (stereo not shown) | 91.7 % of DMSO |
| O=C(OCCOCCO)c1ccccc1Nc1cccc(C(F)(F)F)c1 | 107 % of DMSO |
| Cc1c(C)c2c(c(C)c1O)CCC(C)(C(=O)O)O2 (stereo not shown) | 109 % of DMSO |
| COc1cc2ncn(-c3cc(OCc4ccccc4C(F)(F)F)c(C(N)=O)s3)c2cc1OC | 104 % of DMSO |
| CNS(=O)(=O)Cc1ccc2[nH]cc(CCN(C)C)c2c1 | 101 % of DMSO and 91.9 % of DMSO and 96.2 % of DMSO |
| CC(=O)N[C@@H](CC(C)C)C(=O)O | 94.9 % of DMSO |

Set 4 — effect on: cell-free assay; method: competition with immobilised ligand; tested at: 0.1 µM
Compound: COCCOc1nc(-c2ccc(Cl)nc2)nc2c1CN(C(=O)c1ncn3ccccc13)CC2
| target | remaining binding [%] |
| --- | --- |
| NTRK1 (Homo sapiens, UniProt P04629) | 100 |
| BMP2K (Homo sapiens, UniProt Q9NSY1) | 90 |
| STK26 (Homo sapiens, UniProt Q9P289) | 100 |
| EGFR (Homo sapiens, UniProt P00533, del752-759) | 80 |
| EGFR (Homo sapiens, UniProt P00533, del746-750) | 100 |
| EPHA2 (Homo sapiens, UniProt P29317) | 100 |

Excerpt of the above (set 1):
| target | remaining activity |
| --- | --- |
| Cyclin-dependent kinase 1, with cyclin A (CDK1, Homo sapiens, UniProt P06493) | 97.1% |
| CLK3 (Homo sapiens, UniProt P49761) | 112% |
| PAK3 (Homo sapiens, UniProt O75914) | 96.7% |
| CAMK4 (Homo sapiens, UniProt Q16566) | 101% |
